{"data": "Assay results collected from several papers", "note": "“And” joins repeats or separate records; there may be more than shown. ± marks the error that the study gave.", "chain of UniProt P10408 (whole entry, looked up)": "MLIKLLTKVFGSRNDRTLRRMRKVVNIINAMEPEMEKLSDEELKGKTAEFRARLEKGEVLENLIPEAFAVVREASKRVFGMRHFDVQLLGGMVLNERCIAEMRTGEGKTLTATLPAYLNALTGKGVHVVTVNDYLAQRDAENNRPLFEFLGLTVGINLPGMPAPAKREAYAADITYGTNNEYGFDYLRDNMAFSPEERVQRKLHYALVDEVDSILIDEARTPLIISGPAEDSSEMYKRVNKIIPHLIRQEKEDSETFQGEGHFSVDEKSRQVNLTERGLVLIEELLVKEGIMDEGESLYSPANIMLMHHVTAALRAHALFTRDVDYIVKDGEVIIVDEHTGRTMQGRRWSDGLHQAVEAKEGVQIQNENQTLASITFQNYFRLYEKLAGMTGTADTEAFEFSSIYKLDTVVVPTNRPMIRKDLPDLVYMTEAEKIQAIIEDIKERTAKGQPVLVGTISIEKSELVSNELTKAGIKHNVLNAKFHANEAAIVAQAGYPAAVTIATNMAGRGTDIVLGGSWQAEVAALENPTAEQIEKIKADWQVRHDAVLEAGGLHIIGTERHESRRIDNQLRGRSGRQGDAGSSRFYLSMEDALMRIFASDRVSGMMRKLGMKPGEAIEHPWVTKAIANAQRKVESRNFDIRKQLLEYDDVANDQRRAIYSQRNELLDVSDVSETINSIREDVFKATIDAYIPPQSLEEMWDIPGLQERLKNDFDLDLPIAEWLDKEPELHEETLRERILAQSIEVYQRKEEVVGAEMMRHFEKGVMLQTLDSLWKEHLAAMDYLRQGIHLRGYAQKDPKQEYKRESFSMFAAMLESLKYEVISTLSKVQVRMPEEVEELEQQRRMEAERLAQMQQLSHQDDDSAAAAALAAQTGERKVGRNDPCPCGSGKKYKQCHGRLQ", "chain of UniProt O88704 (whole entry, looked up)": "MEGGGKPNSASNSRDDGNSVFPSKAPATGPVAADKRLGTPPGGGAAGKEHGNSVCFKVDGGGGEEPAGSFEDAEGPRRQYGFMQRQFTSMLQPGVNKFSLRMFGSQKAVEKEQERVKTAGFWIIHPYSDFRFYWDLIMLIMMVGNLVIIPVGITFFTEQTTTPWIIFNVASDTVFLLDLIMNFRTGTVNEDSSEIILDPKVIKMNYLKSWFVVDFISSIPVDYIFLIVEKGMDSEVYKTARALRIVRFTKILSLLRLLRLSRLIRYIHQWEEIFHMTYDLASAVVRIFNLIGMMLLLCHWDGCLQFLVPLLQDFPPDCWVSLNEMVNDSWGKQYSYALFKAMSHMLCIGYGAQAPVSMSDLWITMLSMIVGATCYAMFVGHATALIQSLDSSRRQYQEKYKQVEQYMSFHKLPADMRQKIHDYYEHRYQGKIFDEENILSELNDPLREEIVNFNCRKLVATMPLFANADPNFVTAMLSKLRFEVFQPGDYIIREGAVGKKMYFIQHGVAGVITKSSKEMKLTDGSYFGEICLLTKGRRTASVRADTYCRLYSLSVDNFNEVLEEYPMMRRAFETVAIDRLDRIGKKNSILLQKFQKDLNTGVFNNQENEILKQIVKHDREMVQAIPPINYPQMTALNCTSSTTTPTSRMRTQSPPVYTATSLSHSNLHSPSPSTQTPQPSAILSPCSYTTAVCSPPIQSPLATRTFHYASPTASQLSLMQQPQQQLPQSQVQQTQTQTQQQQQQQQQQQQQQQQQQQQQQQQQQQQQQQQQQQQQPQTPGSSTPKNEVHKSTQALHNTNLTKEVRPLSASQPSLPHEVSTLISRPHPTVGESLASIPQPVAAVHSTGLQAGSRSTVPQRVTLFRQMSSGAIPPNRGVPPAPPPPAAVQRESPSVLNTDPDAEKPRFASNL", "chain of UniProt P54292 (whole entry, looked up)": "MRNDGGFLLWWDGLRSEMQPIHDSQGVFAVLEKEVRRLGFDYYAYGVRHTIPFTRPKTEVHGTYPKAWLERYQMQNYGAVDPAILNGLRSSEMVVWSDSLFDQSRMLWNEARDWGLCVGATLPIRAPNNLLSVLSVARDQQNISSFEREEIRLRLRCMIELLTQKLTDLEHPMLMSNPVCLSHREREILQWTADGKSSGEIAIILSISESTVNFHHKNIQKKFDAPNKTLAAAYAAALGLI", "chain of UniProt P39135 (whole entry, looked up)": "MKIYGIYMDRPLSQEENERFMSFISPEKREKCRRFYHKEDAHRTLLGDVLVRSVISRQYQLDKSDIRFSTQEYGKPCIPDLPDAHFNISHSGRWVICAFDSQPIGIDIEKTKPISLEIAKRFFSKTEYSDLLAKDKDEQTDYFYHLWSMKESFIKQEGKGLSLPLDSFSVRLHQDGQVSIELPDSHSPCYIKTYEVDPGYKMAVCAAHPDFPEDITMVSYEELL", "chain of UniProt P33527 (whole entry, looked up)": "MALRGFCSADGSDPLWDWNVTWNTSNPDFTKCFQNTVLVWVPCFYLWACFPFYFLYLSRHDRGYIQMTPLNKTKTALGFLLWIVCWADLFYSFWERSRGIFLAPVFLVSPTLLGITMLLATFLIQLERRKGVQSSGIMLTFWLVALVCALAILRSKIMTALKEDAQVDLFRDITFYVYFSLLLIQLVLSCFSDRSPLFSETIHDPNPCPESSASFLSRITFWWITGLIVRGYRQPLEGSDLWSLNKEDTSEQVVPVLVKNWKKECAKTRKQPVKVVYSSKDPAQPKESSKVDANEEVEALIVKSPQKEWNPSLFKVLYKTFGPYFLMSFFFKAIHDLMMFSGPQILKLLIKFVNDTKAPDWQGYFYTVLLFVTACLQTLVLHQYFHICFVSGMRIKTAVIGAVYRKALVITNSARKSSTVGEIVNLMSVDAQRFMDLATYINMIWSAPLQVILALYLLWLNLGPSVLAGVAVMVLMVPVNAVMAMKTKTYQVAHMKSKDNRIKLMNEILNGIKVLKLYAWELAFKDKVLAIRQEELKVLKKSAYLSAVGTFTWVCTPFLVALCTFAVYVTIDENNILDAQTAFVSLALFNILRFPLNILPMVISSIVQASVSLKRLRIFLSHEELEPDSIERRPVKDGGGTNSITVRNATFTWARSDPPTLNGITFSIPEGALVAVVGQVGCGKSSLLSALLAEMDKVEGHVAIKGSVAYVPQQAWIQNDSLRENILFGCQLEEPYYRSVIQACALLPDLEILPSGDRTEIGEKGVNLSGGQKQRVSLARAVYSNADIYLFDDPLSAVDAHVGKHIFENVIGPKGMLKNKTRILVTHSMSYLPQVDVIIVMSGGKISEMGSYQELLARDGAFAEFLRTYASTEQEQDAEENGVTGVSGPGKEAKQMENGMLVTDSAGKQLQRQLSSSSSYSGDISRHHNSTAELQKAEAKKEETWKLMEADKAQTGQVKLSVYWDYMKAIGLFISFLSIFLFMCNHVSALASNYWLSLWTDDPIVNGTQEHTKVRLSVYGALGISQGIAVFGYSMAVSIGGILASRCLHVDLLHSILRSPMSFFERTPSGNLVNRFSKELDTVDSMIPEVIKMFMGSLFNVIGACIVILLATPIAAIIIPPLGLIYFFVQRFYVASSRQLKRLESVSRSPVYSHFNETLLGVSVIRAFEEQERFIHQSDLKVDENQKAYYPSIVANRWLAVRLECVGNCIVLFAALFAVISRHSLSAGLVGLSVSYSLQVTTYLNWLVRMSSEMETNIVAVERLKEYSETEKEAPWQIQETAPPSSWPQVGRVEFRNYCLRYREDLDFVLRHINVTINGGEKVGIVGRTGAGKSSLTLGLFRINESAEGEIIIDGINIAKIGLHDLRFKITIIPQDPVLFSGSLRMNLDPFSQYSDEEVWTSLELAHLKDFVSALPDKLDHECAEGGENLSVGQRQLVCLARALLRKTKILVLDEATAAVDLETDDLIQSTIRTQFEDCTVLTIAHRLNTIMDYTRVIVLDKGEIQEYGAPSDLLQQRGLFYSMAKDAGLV", "chain of UniProt Q2PAY2 (whole entry, looked up)": "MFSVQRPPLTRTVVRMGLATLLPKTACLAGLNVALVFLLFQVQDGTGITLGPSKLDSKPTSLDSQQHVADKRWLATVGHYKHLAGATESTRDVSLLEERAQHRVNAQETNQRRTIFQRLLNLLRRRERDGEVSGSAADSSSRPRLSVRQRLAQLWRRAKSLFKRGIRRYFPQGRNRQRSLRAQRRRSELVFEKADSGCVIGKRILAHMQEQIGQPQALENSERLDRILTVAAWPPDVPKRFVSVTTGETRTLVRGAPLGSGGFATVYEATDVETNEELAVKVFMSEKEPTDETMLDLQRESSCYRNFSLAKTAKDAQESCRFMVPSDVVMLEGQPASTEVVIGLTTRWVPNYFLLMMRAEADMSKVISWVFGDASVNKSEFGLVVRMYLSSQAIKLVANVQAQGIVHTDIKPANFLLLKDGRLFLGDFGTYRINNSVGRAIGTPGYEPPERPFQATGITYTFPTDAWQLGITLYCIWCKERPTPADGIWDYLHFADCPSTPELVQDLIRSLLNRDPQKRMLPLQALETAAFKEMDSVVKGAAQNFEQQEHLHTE", "chain of UniProt P81908 (whole entry, looked up)": "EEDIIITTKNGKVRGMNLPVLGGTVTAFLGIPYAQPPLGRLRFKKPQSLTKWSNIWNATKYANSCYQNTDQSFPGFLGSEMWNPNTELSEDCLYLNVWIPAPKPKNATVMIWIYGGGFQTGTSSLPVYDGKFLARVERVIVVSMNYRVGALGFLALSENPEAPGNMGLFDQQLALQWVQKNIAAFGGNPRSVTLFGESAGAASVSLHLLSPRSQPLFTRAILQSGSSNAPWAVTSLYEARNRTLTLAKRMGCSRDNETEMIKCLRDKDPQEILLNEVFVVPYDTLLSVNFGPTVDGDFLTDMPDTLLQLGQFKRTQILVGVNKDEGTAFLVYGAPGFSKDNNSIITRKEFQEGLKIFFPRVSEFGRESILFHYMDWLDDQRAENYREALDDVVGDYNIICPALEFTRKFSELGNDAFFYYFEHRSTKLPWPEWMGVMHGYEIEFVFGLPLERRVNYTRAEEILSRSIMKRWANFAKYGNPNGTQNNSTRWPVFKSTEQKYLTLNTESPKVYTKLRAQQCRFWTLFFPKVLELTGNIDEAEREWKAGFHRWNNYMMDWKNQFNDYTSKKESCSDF"}
{"Structure (SMILES)": "CC(=O)OC[C@H]1O[C@@H]([S-])[C@H](OC(C)=O)[C@@H](OC(C)=O)[C@@H]1OC(C)=O.CCP(CC)CC.[Au+]", "target or system": "Thioredoxin glutathione reductase (Schistosoma mansoni, UniProt Q962Y6)", "assay": "DTNB reduction, inhibitor", "conditions": "10 min preincubation with NADPH, with: 3 mM DTNB", "endpoint": "IC50", "value": "0.0032 µM"}
{"Structure (SMILES)": "O=C(O)C(=O)C=C(O)c1cn(Cc2ccc(F)cc2)c2cc(N3CCCC3)ccc2c1=O", "target or system": "Gag-Pol polyprotein, integrase (gag-pol, Human immunodeficiency virus 1, UniProt P12497)", "assay": "concerted integration, inhibitor, measured: CHS products", "conditions": "2 h, 37 °C", "endpoint": "IC50", "value": "1.76 ± 0.362 µM"}
{"Structure (SMILES)": "CC1=C(C(=O)NC(=O)c2cnccn2)C(c2cccc([N+](=O)[O-])c2)NC(=O)N1 (centres unmarked)", "target or system": "Cholinesterase (BCHE, Equus caballus, UniProt P81908)", "endpoint": "IC50", "value": "5.93 ± 0.01 µM"}
{"Structure (SMILES)": "COC(=O)/C=C/c1cc(O)ccc1O", "target or system": "EGFR (Homo sapiens, UniProt P00533)", "assay": "kinase activity, ADP luminescence", "conditions": "with: 200 µM ATP", "endpoint": "IC50", "value": "> 10 µM"}
{"Structure (SMILES)": "CN[C@@](C)(C[18F])C(=O)O", "system": "SCID mouse U87 xenograft, kidney", "conditions": "15 min, post injection", "endpoint": "tissue uptake", "value": "27 ± 4.8 %ID/g"}
{"Structure (SMILES)": "CC12CCC(OC(=O)NCCCn3ccnc3)CC1CCC1C2CCC2(C)C(c3ccc(=O)oc3)CCC12O (centres unmarked)", "target or system": "Sodium/potassium-transporting ATPase subunit alpha-1 (atp1a1, Xenopus laevis, UniProt Q92123)", "assay": "Na+,K+ pump current, inhibitor, two-electrode voltage clamp", "system": "uninjected Xenopus laevis oocytes", "conditions": "-60 mV holding", "endpoint": "IC50", "value": "~0.02 µM and 0.021 µM"}
{"Structure (SMILES)": "Cc1cccc(Nc2nc(NC3CCCCC3N)ncc2C(N)=O)c1 (centres unmarked)", "target or system": "ROP18 (Toxoplasma gondii, UniProt Q2PAY2)", "assay": "enzyme activity, inhibitor", "endpoint": "IC50", "value": "2.98 µM"}
{"Structure (SMILES)": "C[C@@H]1C[C@H]2[C@@H]3CCC4=CC(=O)C=C[C@]4(C)[C@@]3(Cl)[C@@H](O)C[C@]2(C)[C@@]1(OC(=O)c1ccco1)C(=O)CCl", "target or system": "ABCC1 (Homo sapiens, UniProt P33527)", "assay": "substrate efflux, inhibitor, flow cytometry", "system": "ABCC1-overexpressing SupT1-Vin cells", "conditions": "with: BODIPY-FL-thapsigargin 100 nM", "endpoint": "IC50", "value": "1 ± 0.7 µM"}
{"Structure (SMILES)": "CCCCCCCCCCCCC/C=C/[C@@H](O)[C@@H](N)COP(=O)(O)OCC[N+](C)(C)C", "target or system": "RYR1 (Oryctolagus cuniculus, UniProt P11716)", "assay": "[3H]ryanodine binding, radioligand binding", "system": "skeletal SR vesicles", "conditions": "reducing, no calmodulin, with: 5 mM GSH, 50 µM free Ca2+", "endpoint": "IC50", "value": "26.1 ± 0.8 µM"}
{"Structure (SMILES)": "COc1cc2c(cc1O)CC[n+]1cc3c(OC)c(OC)ccc3c(C)c1-2", "target or system": "DRD2 (Homo sapiens, UniProt P14416)", "assay": "calcium mobilization, antagonist, FLIPR", "system": "HEK293T with Galpha15", "conditions": "10 min preincubation, D2 receptor, with: dopamine at EC50", "endpoint": "IC50", "value": "0.52 µM"}
{"Structure (SMILES)": "O=C1Nc2ccccc2/C1=C/c1cnc[nH]1", "target or system": "Putative glycogen synthase kinase (Leishmania major, UniProt Q4QE15, D105E/Y102F)", "assay": "enzyme activity, inhibitor", "conditions": "90 min, 30 °C, with: ATP 2 µM", "endpoint": "IC50", "value": "6.76 µM"}
{"Structure (SMILES)": "O=Nc1ccc2oc(=O)ccc2c1", "target or system": "sfp (Bacillus subtilis, UniProt P39135)", "assay": "phosphopantetheinylation, inhibitor, fluorescence polarization", "conditions": "45 min, pH 7.6, 10% DMSO, with: VibB 10 µM and rhodamine-CoA 5 µM", "endpoint": "IC50", "value": "3 ± 1 µM"}
{"Structure (SMILES)": "C=CCNc1ncnc2ccc(Br)cc12", "target or system": "ERRα (human)", "assay": "reporter gene, antagonist, luciferase reporter qHTS", "endpoint": "IC50", "value": "9.44 µM"}
{"Structure (SMILES)": "Cc1cccc(C)c1S", "target or system": "Hcn1 (Mus musculus, UniProt O88704)", "assay": "channel gating (V1/2 shift), inhibitor, two-electrode voltage clamp", "system": "Xenopus oocytes", "endpoint": "IC50", "value": "408 ± 55 µM"}
{"Structure (SMILES)": "Cn1c2c(c(=O)c3ccccc31)CC(O)C(C)(C)O2 (centres unmarked)", "target or system": "ACHE (Homo sapiens, UniProt P22303)", "assay": "enzyme activity, inhibitor", "endpoint": "IC50", "value": "> 500 µM"}
{"Structure (SMILES)": "O=C(O)c1ccccc1-c1c2cc(I)c(=O)c(I)c-2oc2c(I)c(O)c(I)cc12", "target or system": "secA (Escherichia coli, UniProt P10408)", "assay": "ATPase activity, inhibitor", "conditions": "full-length protein", "endpoint": "IC50", "value": "20 to 30 µM and 21 µM"}
{"Structure (SMILES)": "O=C(COc1ccc(I)cc1)N[C@H]1CCOC1=O", "target or system": "rhlR (Pseudomonas aeruginosa, UniProt P54292)", "assay": "reporter gene, antagonist", "system": "PAO-JP2 prhlI-LVAgfp", "conditions": "with: 30 µM BHL and 100 nM OdDHL", "endpoint": "IC50", "value": "67.2 µM"}
{"note": "Repeated from above:"}
{"Structure (SMILES)": "Cn1c2c(c(=O)c3ccccc31)CC(O)C(C)(C)O2 (centres unmarked)", "target or system": "ACHE (Homo sapiens, UniProt P22303)", "assay": "enzyme activity, inhibitor", "endpoint": "IC50", "value": "> 500 µM"}
